Assay results pooled from the literature.
Numbered parts are unrelated; each lists some results of a single study. Several values in a cell are separate wells, animals, samples, runs or records.
Chain of UniProt Q15418 (whole entry, looked up): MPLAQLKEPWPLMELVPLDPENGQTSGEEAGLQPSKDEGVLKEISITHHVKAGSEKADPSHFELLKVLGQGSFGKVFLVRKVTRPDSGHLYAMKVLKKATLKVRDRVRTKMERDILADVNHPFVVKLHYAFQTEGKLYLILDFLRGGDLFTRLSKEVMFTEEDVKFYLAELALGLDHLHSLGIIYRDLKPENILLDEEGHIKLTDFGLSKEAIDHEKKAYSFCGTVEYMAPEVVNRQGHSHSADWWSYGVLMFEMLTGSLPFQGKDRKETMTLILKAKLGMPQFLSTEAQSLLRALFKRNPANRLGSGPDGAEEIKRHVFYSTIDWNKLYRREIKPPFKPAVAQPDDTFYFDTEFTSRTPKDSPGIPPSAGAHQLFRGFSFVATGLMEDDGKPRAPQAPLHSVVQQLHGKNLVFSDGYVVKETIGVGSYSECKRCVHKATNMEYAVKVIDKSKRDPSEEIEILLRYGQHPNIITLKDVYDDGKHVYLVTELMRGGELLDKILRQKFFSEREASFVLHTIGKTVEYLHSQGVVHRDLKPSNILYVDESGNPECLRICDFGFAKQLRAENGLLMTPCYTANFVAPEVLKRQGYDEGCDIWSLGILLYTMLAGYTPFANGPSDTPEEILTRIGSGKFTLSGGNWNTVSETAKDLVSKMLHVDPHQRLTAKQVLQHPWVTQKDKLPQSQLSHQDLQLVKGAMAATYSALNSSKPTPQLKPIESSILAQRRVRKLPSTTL
Chain of UniProt Q9UPE1 (whole entry, looked up): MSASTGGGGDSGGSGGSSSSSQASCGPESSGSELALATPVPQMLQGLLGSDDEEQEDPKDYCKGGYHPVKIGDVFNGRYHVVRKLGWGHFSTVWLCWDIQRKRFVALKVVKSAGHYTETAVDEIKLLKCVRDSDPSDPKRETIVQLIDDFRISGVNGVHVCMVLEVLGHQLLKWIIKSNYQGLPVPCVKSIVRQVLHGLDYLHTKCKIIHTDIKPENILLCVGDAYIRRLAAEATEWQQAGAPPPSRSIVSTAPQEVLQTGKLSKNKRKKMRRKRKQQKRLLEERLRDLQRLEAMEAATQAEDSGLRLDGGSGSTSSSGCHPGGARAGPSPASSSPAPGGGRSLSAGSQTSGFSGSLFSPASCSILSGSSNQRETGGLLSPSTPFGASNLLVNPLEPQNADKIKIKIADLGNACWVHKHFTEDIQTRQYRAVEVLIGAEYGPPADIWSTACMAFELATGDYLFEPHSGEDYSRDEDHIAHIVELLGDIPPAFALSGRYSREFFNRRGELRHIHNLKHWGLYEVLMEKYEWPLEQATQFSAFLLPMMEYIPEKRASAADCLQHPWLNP

Series 1
Target: Eukaryotic initiation factor 4A-I (EIF4A1, Homo sapiens, UniProt P60842)
Chain of UniProt P60842 (whole entry, looked up): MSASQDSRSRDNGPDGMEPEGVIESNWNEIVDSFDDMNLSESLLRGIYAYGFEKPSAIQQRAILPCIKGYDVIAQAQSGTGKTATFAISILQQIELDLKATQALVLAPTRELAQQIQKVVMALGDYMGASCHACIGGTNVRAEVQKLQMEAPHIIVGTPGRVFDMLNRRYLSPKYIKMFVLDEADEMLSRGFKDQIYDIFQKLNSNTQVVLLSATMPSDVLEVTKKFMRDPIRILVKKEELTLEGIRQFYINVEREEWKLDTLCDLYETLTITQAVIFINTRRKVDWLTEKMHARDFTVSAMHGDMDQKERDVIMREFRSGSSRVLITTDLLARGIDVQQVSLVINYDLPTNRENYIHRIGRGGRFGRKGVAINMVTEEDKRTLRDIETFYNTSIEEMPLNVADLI
Effect on: RNA clamping
Technique: fluorescence polarization
Tested at: concentration not given
Together with: FAM-labelled poly r(AG)8 RNA
Reading: higher = more clamping
`COC(=O)[C@@H]1[C@@H](c2ccccc2)[C@@]2(c3ccc(OC)cc3)C(=O)[C@]1(O)c1ccccc1N2C` — result for “fluorescence polarization change”: -2.2 mP and 9.5 mP.
Under “fluorescence polarization change”, `COC(=O)[C@@H]1[C@@H](c2ccccc2)[C@@]2(c3ccc(Br)cc3)C(=O)[C@]1(O)c1c(OC)cc(OC)cc1N2C` is recorded as 7.9 mP.
Under “fluorescence polarization change”, `COc1ccc([C@@]23Oc4cc(OC)cc(OC)c4[C@]2(O)c2nc(Cc4ccccc4)[nH]c(=O)c2[C@H]3c2ccccc2)cc1` is recorded as 33.2 mP.
Under “fluorescence polarization change”, `COCCN[C@]12c3c(OC)cc(OC)cc3O[C@@]1(c1ccc(OC)cc1)[C@H](c1ccccc1)[C@@H](C(=O)N(C)C)[C@H]2O` is recorded as 10 mP.
`COc1cc(F)cc2c1[C@]1(O)[C@H](O)[C@H](/C(N)=N/O)[C@@H](c3ccccc3)[C@]1(c1ccc(Br)cc1)O2` — result for “fluorescence polarization change”: 60.6 mP.
Under “fluorescence polarization change”, `COc1ccc([C@@]23Oc4cc(OC)cc(OC)c4[C@]2(O)c2nc(-c4ccc(F)cc4)[nH]c(=O)c2[C@H]3c2ccccc2)cc1` is recorded as 21.2 mP.
Under “fluorescence polarization change”, `COCC1=N[C@@]2(O)[C@H](C(=O)OC)[C@@H](c3ccccc3)[C@]3(c4ccc(OC)cc4)Oc4cc(OC)cc(OC)c4[C@]23N1` is recorded as 71.7 mP and 58.7 mP.
Under “fluorescence polarization change”, `COc1ccc([C@@]23Oc4cc(OC)cc(OC)c4[C@]2(O)C(=O)C[C@H]3c2ccccc2)cc1` is recorded as 50.2 mP.
`CCOc1ccccc1-c1nc2c(c(=O)[nH]1)[C@@H](c1ccccc1)[C@]1(c3ccc(OC)cc3)Oc3cc(OC)cc(OC)c3[C@]21O` — result for “fluorescence polarization change”: 57.2 mP.
Under “fluorescence polarization change”, `COC(=O)[C@@H]1[C@@H](c2ccccc2)[C@]2(c3ccc(Br)cc3)Oc3cc(OC)cc(OC)c3[C@@]1(O)C2(O)O` is recorded as 8.2 mP.
`C#CCOc1nc(-c2ccccc2)nc2c1[C@@H](c1ccccc1)[C@]1(c3ccc(OC)cc3)Oc3cc(OC)cc(OC)c3[C@]21OCC#C`: “fluorescence polarization change” 17.5 mP.
`COc1ccc([C@@]23Oc4cc(OC)cc(OC)c4[C@]2(O)c2nc(-c4ccc(OCc5ccccc5)cc4)[nH]c(=O)c2[C@H]3c2ccccc2)cc1`: “fluorescence polarization change” 1.9 mP.
`COc1ccc([C@@]23Oc4cc(OC)cc(OC)c4[C@@]24NC(C2CC2)=N[C@@]4(O)[C@H](C(=O)N(C)OC)[C@H]3c2ccccc2)cc1` — result for “fluorescence polarization change”: 80.3 mP.
`COc1ccc([C@@]23Oc4cc(OC)cc(OC)c4[C@]2(O)c2nc(-c4cccc(C)c4)[nH]c(=O)c2[C@H]3c2ccccc2)cc1`: “fluorescence polarization change” 9.9 mP.
For `CONC(=O)[C@H]1[C@@H](O)[C@@]2(O)c3c(OC)cc(OC)cc3O[C@@]2(c2ccc(OC)cc2)[C@@H]1c1ccccc1`, “fluorescence polarization change” read 63.9 mP and 22.2 mP and 74.6 mP.
For `COC(=O)[C@@H]1[C@@H](c2ccccc2)[C@]2(c3ccc(OC)cc3)Oc3cc(OC)cc(OC)c3[C@@]23N=C(C2CC2)N[C@@]13O`, “fluorescence polarization change” read 86.1 mP and 62.7 mP.
`COC(=O)[C@H]1[C@H](c2ccccc2)[C@@]2(c3ccc(OC)cc3)Oc3cc(OC)cc(OC)c3[C@]1(O)[C@H]2O` — result for “fluorescence polarization change”: -2.2 mP.

Series 2
Target: DNA polymerase theta, ATPase domain (POLQ, Homo sapiens, UniProt O75417)
Chain of UniProt O75417 (whole entry, unmodified, looked up): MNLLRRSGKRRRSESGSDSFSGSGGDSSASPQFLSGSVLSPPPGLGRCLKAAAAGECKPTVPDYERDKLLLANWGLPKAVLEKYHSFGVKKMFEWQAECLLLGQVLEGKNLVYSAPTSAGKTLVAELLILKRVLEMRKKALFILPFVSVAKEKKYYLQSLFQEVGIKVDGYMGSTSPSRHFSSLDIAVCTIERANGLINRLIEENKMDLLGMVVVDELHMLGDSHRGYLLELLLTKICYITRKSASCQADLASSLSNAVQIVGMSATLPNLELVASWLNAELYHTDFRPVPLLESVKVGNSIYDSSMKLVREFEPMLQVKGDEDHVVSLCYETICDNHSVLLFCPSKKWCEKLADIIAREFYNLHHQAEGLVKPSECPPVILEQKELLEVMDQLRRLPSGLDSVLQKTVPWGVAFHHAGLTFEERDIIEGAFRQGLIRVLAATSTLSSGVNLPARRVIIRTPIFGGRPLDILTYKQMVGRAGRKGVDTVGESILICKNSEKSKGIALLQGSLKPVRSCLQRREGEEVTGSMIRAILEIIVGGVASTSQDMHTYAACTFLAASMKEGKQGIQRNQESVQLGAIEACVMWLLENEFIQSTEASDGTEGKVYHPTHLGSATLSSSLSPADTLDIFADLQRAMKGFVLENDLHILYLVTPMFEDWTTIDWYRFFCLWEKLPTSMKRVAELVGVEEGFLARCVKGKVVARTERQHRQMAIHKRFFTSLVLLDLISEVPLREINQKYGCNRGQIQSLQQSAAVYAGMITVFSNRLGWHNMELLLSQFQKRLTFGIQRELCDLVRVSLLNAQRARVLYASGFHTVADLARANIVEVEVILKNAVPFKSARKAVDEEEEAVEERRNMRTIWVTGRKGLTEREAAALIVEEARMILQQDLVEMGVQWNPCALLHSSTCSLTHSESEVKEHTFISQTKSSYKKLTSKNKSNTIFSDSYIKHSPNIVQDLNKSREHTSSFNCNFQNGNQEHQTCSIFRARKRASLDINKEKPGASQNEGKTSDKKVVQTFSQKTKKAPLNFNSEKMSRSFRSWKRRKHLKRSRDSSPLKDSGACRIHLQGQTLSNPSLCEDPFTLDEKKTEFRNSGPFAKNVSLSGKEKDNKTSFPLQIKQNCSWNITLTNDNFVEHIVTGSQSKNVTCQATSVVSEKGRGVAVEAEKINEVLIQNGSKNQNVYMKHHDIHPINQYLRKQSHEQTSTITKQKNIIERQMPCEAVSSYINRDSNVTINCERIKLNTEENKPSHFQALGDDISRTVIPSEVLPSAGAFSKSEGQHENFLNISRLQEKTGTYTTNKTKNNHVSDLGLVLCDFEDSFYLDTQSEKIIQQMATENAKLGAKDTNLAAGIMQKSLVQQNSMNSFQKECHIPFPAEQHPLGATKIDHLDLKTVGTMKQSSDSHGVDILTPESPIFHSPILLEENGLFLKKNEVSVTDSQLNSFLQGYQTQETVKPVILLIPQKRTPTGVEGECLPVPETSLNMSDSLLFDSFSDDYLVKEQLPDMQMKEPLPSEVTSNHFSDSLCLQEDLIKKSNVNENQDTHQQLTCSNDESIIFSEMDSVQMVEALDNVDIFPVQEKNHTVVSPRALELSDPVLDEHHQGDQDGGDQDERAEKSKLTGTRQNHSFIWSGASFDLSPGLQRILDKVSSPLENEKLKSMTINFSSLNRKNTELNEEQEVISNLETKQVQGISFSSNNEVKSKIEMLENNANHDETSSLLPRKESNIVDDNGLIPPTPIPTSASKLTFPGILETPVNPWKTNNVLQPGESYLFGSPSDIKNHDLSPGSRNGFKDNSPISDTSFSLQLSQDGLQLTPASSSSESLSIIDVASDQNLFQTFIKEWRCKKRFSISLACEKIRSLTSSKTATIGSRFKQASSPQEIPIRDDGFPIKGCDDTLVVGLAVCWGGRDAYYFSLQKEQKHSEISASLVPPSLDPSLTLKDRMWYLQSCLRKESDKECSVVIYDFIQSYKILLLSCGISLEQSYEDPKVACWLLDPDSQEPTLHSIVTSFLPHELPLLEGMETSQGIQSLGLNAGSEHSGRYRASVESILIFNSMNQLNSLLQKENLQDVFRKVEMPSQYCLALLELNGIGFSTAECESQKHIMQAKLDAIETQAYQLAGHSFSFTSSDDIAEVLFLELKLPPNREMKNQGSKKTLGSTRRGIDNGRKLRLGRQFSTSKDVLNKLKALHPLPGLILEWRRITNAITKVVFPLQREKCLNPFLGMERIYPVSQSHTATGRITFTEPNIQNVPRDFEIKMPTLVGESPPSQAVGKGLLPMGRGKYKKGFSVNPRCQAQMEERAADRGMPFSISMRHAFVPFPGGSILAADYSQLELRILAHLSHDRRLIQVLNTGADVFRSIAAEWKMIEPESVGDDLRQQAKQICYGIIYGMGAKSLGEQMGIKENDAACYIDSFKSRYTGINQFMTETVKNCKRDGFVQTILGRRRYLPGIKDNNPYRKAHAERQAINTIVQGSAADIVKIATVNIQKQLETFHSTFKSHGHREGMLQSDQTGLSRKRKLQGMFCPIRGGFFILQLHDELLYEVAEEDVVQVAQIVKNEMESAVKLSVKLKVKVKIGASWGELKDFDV
Effect on: enzyme activity
Mode: inhibitor
Tested at: 77 µM
Reference: untreated
`O=C1C=C2C=C[C@@H]3C[C@@]2(O1)[C@H]1CCCCN31` gave a remaining activity of 100%.
`CCN1C[C@]2(COC)[C@H](O)C[C@H](OC)[C@@]34[C@@H]5C[C@@]6(O)[C@H](OC(=O)c7ccccc7)[C@@H]5[C@@](OC(C)=O)([C@@H]([C@H](OC)[C@H]23)[C@@H]14)[C@@H](O)[C@@H]6OC` gave a remaining activity of 104%.
With `c1ccc2c(c1)Nc1ccccc1S2` the remaining activity was 99.2%.
The remaining activity of `O=C(O)c1nn(Cc2ccc(Cl)cc2Cl)c2ccccc12` is reported as 95% and 92.6%.
`CN1[C@@H](C[C@@H](O)c2ccccc2)CCC[C@H]1C[C@H](O)c1ccccc1` has a remaining activity of 99.5%.
With `C[N+]1(C)CCO[C@@](O)(c2ccc(-c3ccc([C@@]4(O)C[N+](C)(C)CCO4)cc3)cc2)C1` the remaining activity was 115%.
With `O=C(O)Cc1cnc[nH]1` the remaining activity was 105%.
With `OC(c1ccccc1)(c1ccccc1)C1CCNCC1` the remaining activity was 102%.

Series 3
Compound: CCCCC[C@@H](O)CC(=O)N[C@@H]1C(=O)N[C@H](CCCNC(=N)N)C(=O)N[C@@H](CO)C(=O)NCC(=O)N(C)[C@H](Cc2ccccc2)C(=O)N[C@@H](CC(C)C)C(=O)N[C@H](CCCNC(=N)N)C(=O)N[C@@H](CO)C(=O)N[C@H]([C@H](C)O)C(=O)N[C@H](Cc2c[nH]c3ccccc23)C(=O)N[C@@H]([C@@H](C)CC)C(=O)NCC(=O)O[C@@H]1C
Organism: Staphylococcus aureus
Strain: USA300
Tested at: 2 x MIC
It gave 1400 CFU/mL and 800 CFU/mL and 1500 CFU/mL for viable cells (60 min).
120 min — viable cells: 1500 CFU/mL and 1000 CFU/mL and 800 CFU/mL.
For 360 min: viable cells read 300 CFU/mL and 400 CFU/mL and 500 CFU/mL.
For 180 min: viable cells read 1000 CFU/mL and 500 CFU/mL and 800 CFU/mL.

Other studies, line by line
pknB: Serine/threonine-protein kinase PknB (pknB, Mycobacterium tuberculosis, UniProt P9WI81)
Chain of UniProt P9WI81 (whole entry, looked up): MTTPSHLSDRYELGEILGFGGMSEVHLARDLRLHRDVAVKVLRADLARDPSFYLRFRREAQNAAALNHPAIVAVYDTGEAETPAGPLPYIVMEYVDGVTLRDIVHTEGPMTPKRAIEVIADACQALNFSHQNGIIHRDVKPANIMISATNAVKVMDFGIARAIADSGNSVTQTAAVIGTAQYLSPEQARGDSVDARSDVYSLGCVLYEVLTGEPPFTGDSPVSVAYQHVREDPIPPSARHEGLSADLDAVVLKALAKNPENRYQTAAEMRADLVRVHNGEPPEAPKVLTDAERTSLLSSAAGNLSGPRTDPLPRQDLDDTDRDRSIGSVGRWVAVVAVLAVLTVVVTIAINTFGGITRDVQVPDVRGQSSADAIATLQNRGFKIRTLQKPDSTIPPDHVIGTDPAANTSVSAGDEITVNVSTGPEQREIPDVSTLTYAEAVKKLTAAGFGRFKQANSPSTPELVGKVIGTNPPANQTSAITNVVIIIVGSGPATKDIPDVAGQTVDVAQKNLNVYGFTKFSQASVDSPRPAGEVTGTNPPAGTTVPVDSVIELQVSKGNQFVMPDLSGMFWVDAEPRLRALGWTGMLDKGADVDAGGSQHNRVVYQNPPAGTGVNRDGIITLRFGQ
For `CN[C@@H]1C[C@H]2O[C@@](C)([C@@H]1OC)n1c3ccccc3c3c4c(c5c6ccccc6n2c5c31)C(=O)NC4`, the remaining activity was 3.52% and 0.432% (RPS6KA1 (Homo sapiens, UniProt Q15418); enzyme activity, inhibitor; 0.5 µM; reference: control).
`CCOC(=O)c1cc2cc(-c3cc(C(=O)NCc4ccc(C(=O)O)cc4)nn3C)ccc2[nH]1` has a remaining binding of 100% (pknB; cell-free assay, competition with immobilised ligand; 0.1 µM).
The inhibition of `C=C[C@H]1CN2CC[C@H]1C[C@@H]2[C@@H](O)c1ccnc2ccccc12` is reported as 9% (CAMK2A (Homo sapiens, UniProt Q9UQM7); enzyme activity, inhibitor; 10 µM).
`Cn1nc(C(=O)NCc2ccc(C(=O)O)cc2)cc1-c1ccc2[nH]ccc2c1` has a remaining binding of 73% (CDPK1 (Plasmodium falciparum, UniProt P62344); cell-free assay, competition with immobilised ligand; 0.1 µM).
With `CO[C@@H]1[C@H](N(C)C(=O)c2ccccc2)C[C@H]2O[C@]1(C)n1c3ccccc3c3c4c(c5c6ccccc6n2c5c31)C(=O)NC4` the inhibition was 20% (LTK (Homo sapiens, UniProt P29376); enzyme activity, inhibitor; 1 µM).
`O=C(O)[C@H]1[C@H](Cn2nnc3ccccc3c2=O)CC[C@@H]1C(=O)c1ccc(OCCC2CCOCC2)cc1` gave a remaining binding of 77% (pknB; cell-free assay, competition with immobilised ligand; 1 µM).
With `O=c1[nH]c2ccccc2n1C1CCN(Cc2ccc(-c3[nH]c4cc5ncnc5cc4nc3-c3ccccc3)cc2)CC1` the remaining activity was 107% (SRPK3 (Homo sapiens, UniProt Q9UPE1); enzyme activity, inhibitor; 0.5 µM; reference: control).

A few entries again (other studies, line by line):
The inhibition of `C=C[C@H]1CN2CC[C@H]1C[C@@H]2[C@@H](O)c1ccnc2ccccc12` is reported as 9% (CAMK2A (Homo sapiens, UniProt Q9UQM7); enzyme activity, inhibitor; 10 µM).
For `CN[C@@H]1C[C@H]2O[C@@](C)([C@@H]1OC)n1c3ccccc3c3c4c(c5c6ccccc6n2c5c31)C(=O)NC4`, the remaining activity was 3.52% and 0.432% (RPS6KA1 (Homo sapiens, UniProt Q15418); enzyme activity, inhibitor; 0.5 µM; reference: control).
